Experimental data gathered from unrelated publications.
Protocols differ between the studies behind these lines.

| SMILES | organism | assay | system | setting | MIC |
| --- | --- | --- | --- | --- | --- |
| CC[C@H](C)[C@H](NC(=O)[C@H](CCCCN)NC(=O)[C@@H](NC(=O)[C@H](Cc1ccc(O)cc1)NC(=O)[C@H](CCCCN)NC(=O)[C@H](CCCCN)NC(=O)CNC(=O)[C@H](CCCCN)NC(=O)[C@@H](NC(=O)[C@H](C)NC(=O)[C@H](CC(C)C)NC(=O)[C@H](Cc1c[nH]c2ccccc12)NC(=O)CNC(=O)[C@@H](NC(=O)[C@H](Cc1ccccc1)NC(=O)[C@H](CCCCN)NC(=O)[C@H](CC(C)C)NC(=O)[C@H](Cc1ccccc1)NC(=O)[C@H](C)NC(=O)CNC(=O)[C@@H](N)CCSC)C(C)C)[C@@H](C)O)C(C)C)C(=O)N[C@@H](C)C(=O)N[C@@H](Cc1c[nH]c2ccccc12)C(=O)N[C@@H](CC(=O)O)C(=O)N[C@@H](Cc1c[nH]cn1)C(=O)N[C@@H](CCCCN)C(=O)NCC(=O)N[C@H](C(=O)N[C@H](C(=O)N[C@@H](CCSC)C(=O)N[C@@H](CCCCN)C(=O)N[C@@H](Cc1c[nH]c2ccccc12)C(=O)N[C@@H](CC(C)C)C(=O)N[C@@H](CC(N)=O)C(=O)N[C@@H](C)C(=O)NCC(=O)N[C@@H](CCC(N)=O)C(=O)N[C@H](C(=O)N[C@@H](Cc1ccccc1)C(=O)N[C@H](C(=O)N[C@@H](Cc1c[nH]c2ccccc12)C(=O)N[C@H](C(=O)N[C@@H](Cc1ccc(O)cc1)C(=O)N[C@@H](CCC(=O)O)C(=O)N[C@@H](CCC(N)=O)C(=O)N[C@H](C(=O)N[C@@H](CCCCN)C(=O)N[C@@H](CCCCN)C(=O)N[C@@H](CC(C)C)C(=O)N[C@@H](Cc1c[nH]c2ccccc12)C(=O)N[C@H](C(=O)O)[C@@H](C)O)[C@@H](C)CC)C(C)C)[C@@H](C)O)[C@@H](C)O)[C@@H](C)CC)[C@@H](C)O | Staphylococcus pseudintermedius | broth microdilution | – | 37 °C | 3.9 µg/mL |
| CC1(C)SC2C(NC(=O)C(NC(=O)C3=C(O)C4(CC4)NC3=O)c3ccccc3)C(=O)N2C1C(=O)O (stereo not drawn) | Escherichia coli | broth microdilution | isolate IU 356 A, KPC-3, VIM-1, TEM | no clavulanic acid | > 200 µg/mL |
| CC[C@H](C)[C@H](NC(=O)[C@H](CC(C)C)NC(=O)[C@@H]1CCCN1C(=O)[C@@H](N)CC(C)C)C(=O)N[C@H](C(=O)N[C@@H](Cc1ccccc1)C(=O)N[C@@H](CC(C)C)C(=O)N[C@@H](CCCNC(=N)N)C(=O)N[C@@H](CC(N)=O)C(=O)N[C@@H](CCCNC(=N)N)C(=O)N[C@@H](CC(C)C)C(=O)N[C@@H](CCCCN)C(=O)N[C@@H](Cc1ccc(O)cc1)C(=O)O)[C@@H](C)CC | Micrococcus luteus | – | NCTC 2665 | – | 25 µg/mL |
| CC[C@H](C)[C@H](NC(=O)[C@H](CCCNC(=N)N)NC(=O)[C@H](Cc1c[nH]c2ccccc12)NC(=O)[C@H](CCCNC(=N)N)NC(=O)[C@H](Cc1c[nH]c2ccccc12)NC(=O)[C@H](Cc1c[nH]c2ccccc12)NC(=O)[C@H](Cc1c[nH]c2ccccc12)NC(=O)[C@H](CCCNC(=N)N)NC(=O)[C@H](Cc1c[nH]c2ccccc12)NC(=O)[C@H](CCCNC(=N)N)NC(=O)CN)C(N)=O | Candida tropicalis | broth microdilution | CGMCC 2.192, RPMI 1640-MOPS | 48 h, 30 °C | 4 µM |
| CC(C)C1NC(=O)C(C(=O)NC(C(=O)NC2C(=O)N3C2SC(C)(C)C3C(=O)O)c2ccccc2)=C1O (stereo not drawn) | Escherichia coli | broth microdilution | Keio mutant JW2142-1 | – | 25 µg/mL |
| CS(=O)(=O)Nc1ncn(-c2cc(F)c(COc3ccc(OS(=O)(=O)F)cc3)c(F)c2)n1 | Mycobacterium africanum | – | – | – | 0.02 µM |
| CC1NC(=O)C(C(=O)NC(C(=O)NC2C(=O)N3C2SC(C)(C)C3C(=O)O)c2ccccc2)=C1O (stereo not drawn) | Escherichia coli | broth microdilution | isolate IU, CTX-M-14, TEM-1 | with: clavulanic acid 6 µg/mL | > 200 µg/mL |
| CC[C@H](C)[C@H](NC(=O)[C@H](CCCCN)NC(=O)[C@H](CCCCN)NC(=O)[C@H](Cc1ccccc1)NC(=O)[C@@H](NC(=O)[C@@H](NC(=O)[C@H](CCCNC(=N)N)NC(=O)[C@H](Cc1ccccc1)NC(=O)[C@@H](NC(=O)[C@H](CCCCN)NC(=O)[C@H](CCCCN)NC(=O)[C@@H](N)CCSC)[C@@H](C)CC)C(C)C)[C@@H](C)CC)C(=O)N[C@@H](CC(C)C)C(=O)N[C@@H](CCCCN)C(=O)N[C@@H](CCCNC(=N)N)C(=O)N[C@@H](CC(C)C)C(=O)N[C@H](C(=O)N[C@H](C(=O)O)C(C)C)[C@@H](C)CC | Staphylococcus aureus | broth microdilution | ATCC 25923 | compound pretreated with pepsin 1 h, with: pepsin 1 mg/mL | 16 µg/mL |
| CC(C)C[C@H](NC(=O)[C@H](CCCNC(=N)N)NC(=O)[C@H](Cc1c[nH]c2ccccc12)NC(=O)[C@H](CCCNC(=N)N)NC(=O)[C@H](Cc1c[nH]c2ccccc12)NC(=O)[C@H](Cc1c[nH]c2ccccc12)NC(=O)[C@H](Cc1c[nH]c2ccccc12)NC(=O)[C@H](CCCNC(=N)N)NC(=O)[C@H](Cc1c[nH]c2ccccc12)NC(=O)[C@@H](N)CCCNC(=N)N)C(N)=O | Candida tropicalis | broth microdilution | CGMCC 2.192, RPMI 1640-MOPS | 48 h, 30 °C | 4 µM |
| CC(=O)NC[C@H]1CN(c2ccc(N3CCOCC3)c(F)c2)C(=O)O1 | Staphylococcus aureus | – | MRSA strain 6 | – | 0.5 µg/mL |
| N=C(N)NCCC[C@H](NC(=O)[C@H](Cc1c[nH]c2ccccc12)NC(=O)[C@H](CCCNC(=N)N)NC(=O)[C@H](Cc1c[nH]c2ccccc12)NC(=O)[C@H](Cc1c[nH]c2ccccc12)NC(=O)[C@H](Cc1c[nH]c2ccccc12)NC(=O)[C@H](CCCNC(=N)N)NC(=O)[C@H](Cc1c[nH]c2ccccc12)NC(=O)[C@@H](N)CCCNC(=N)N)C(=O)N[C@@H](Cc1c[nH]c2ccccc12)C(N)=O | Candida tropicalis | broth microdilution | CGMCC 2.192, RPMI 1640-MOPS | 48 h, 30 °C | 4 µM |
| O=C(CO/N=c1\cc2n(-c3ccc(Cl)cc3)c3ccccc3nc-2cc1Nc1ccc(Cl)cc1)NCc1ccc2c(c1)CCO2 | Neisseria gonorrhoeae | bacterial growth | 700825, streptomycin-resistant | 24 h | > 30 µM |
| CC1(C)SC2C(NC(=O)C(NC(=O)C3=C(O)C4CCCN4C3=O)c3ccccc3)C(=O)N2C1C(=O)O (stereo not drawn) | Escherichia coli | broth microdilution | isolate IU, CTX-M-14, TEM-1 | no clavulanic acid | > 200 µg/mL |
| CC(C)[C@H](NC(=O)[C@H](CCCNC(=N)N)NC(=O)[C@H](Cc1c[nH]c2ccccc12)NC(=O)[C@H](CCCNC(=N)N)NC(=O)[C@H](Cc1c[nH]c2ccccc12)NC(=O)[C@H](Cc1c[nH]c2ccccc12)NC(=O)[C@H](Cc1c[nH]c2ccccc12)NC(=O)[C@H](CCCNC(=N)N)NC(=O)[C@H](Cc1c[nH]c2ccccc12)NC(=O)[C@@H](N)CCCNC(=N)N)C(N)=O | Candida albicans | broth microdilution | 17546, RPMI 1640-MOPS | 48 h, 30 °C | 8 µM |
| C[C@H](NC(=O)CO/N=c1\cc2n(-c3ccc(Cl)cc3)c3ccccc3nc-2cc1Nc1ccc(Cl)cc1)C(=O)OC(C)(C)C | Neisseria gonorrhoeae | bacterial growth | 1130991, multidrug-resistant | 24 h | > 30 µM |
| Cc1c2ccncc2c(C)c2c1[nH]c1ccccc12 | Candidozyma auris | inhibitor | 276 | 24 h | 128 µg/mL |
| C[C@@H](O)[C@H]1C(=O)N2C(C(=O)O)=C(SCCN=CN)C[C@H]12 | Klebsiella pneumoniae | – | K3 | after induction, with: ceftazidime-avibactam 4/1 | 64 µg/mL |
| N=C(N)NCCC[C@H](NC(=O)[C@H](Cc1c[nH]c2ccccc12)NC(=O)[C@H](CCCNC(=N)N)NC(=O)[C@H](Cc1c[nH]c2ccccc12)NC(=O)[C@H](Cc1c[nH]c2ccccc12)NC(=O)[C@H](Cc1c[nH]c2ccccc12)NC(=O)[C@H](CCCNC(=N)N)NC(=O)[C@H](Cc1c[nH]c2ccccc12)NC(=O)[C@H](CCCNC(=N)N)NC(=O)CN)C(N)=O | Candida tropicalis | broth microdilution | CGMCC 2.192, RPMI 1640-MOPS | 48 h, 30 °C | 2 µM |
